# Measured values collected from several papers.
# Lines come from different studies, so protocols differ.
SMILES,test,system,conditions,measurement,value
Cc1nc(Nc2ncc(C(=O)Nc3c(C)cccc3Cl)s2)cc(N2CCN(CCO)CC2)n1,,"human patients, plasma","oral, dose not given, day 42, median of combined dose levels",apparent oral clearance,2650 mL/min/m²
C[C@H](Cn1cnc2c(N)ncnc21)OCP(=O)(O)O,population PK model,"human, plasma","oral, final simultaneous model estimate",apparent clearance,42.2 L/h
C=CC(=O)N(C)CCOc1c(N)ncnc1-c1cc(F)cc(NC(=O)c2ccc(C3CC3)cc2F)c1C,,"human, whole blood","oral, 400 mg, single ascending dose",apparent clearance CL/F,543 L/h
Cn1cc(-c2cn3nccc3c(-c3cnn([C@]4(CC#N)C[C@@H](C#N)C4)c3)n2)cn1,,"healthy humans fasted, plasma","10 mg single dose, geometric mean",apparent clearance CL/F,27.1 L/h
COc1cc(C(=O)NC2CCN(C)CC2)c(F)cc1Nc1ncc(C(F)(F)F)c(Oc2cccc3c2C(=O)N(C)C3)n1,,"human patients, plasma","oral, 25 mg single dose, geometric mean",apparent oral clearance CL/F,180 mL/min
NC(=O)N1c2ccccc2CC(=O)c2ccccc21,population PK modelling,"human patients, plasma","oral, weight-scaled, with back-conversion",apparent clearance,216 L/h
O=C(Nc1nc2cccc(-c3ccc(CN4CCS(=O)(=O)CC4)cc3)n2n1)C1CC1,population PK SIR median,human,"oral, dose not given",apparent peripheral volume,35.5 L
Cc1cc(C)c(CNC(=O)c2cc(Cl)c3c(c2C)O[C@@](C)([C@H]2CC[C@H](N(C)C)CC2)O3)c(=O)[nH]1,,"human, plasma","oral, 200 mg, cycle 1 day 15, mean",apparent volume of distribution (total),268 L
C[C@@H](Oc1ccc(S(C)(=O)=O)cc1C(=O)N1C[C@@H]2C[C@]2(c2cc(C(F)(F)F)on2)C1)C(F)(F)F,,"young healthy humans, plasma","oral, 75 mg once daily, multiple dosing",apparent clearance at steady state,148 mL/min
NC[C@@]1(CC(=O)O)[C@@H]2CC[C@H]3C[C@@H]2[C@@H]1C3,,"human, normal renal function, plasma","oral, 20 mg single dose, geometric mean",apparent clearance,11.2 L/h
CNC(=O)c1ccc(N2C(=S)N(c3ccc(C#N)c(C(F)(F)F)c3)C(=O)C2(C)C)cc1F,population PK base model,"human, male","oral, dose not given",apparent central volume,23.1 L
C[C@@]1(c2cc(NC(=O)c3ccc(C#N)cn3)ccc2F)C=CSC(N)=N1,,"elderly humans, both sexes, plasma","oral, 30 mg single dose, mean",apparent clearance CL/F,12.3 L/h
